Measured values from different studies.
A part holds a random share of what one study measured. Changes are numbered by the printed parent chain.

Block 1
Target: ABI1, truncated, D143A, DHFR fusion (Arabidopsis thaliana)
Technique: DHFR PCA, deep sequencing
Medium: yeast
Setting: methotrexate growth selection, single substitutions
Together with: (+)-ABA 4.8 µM
Baseline: wild-type fitted maximum
Direction: higher = stronger binding
Parent: PYL1, truncated, DHFR fusion (Arabidopsis thaliana); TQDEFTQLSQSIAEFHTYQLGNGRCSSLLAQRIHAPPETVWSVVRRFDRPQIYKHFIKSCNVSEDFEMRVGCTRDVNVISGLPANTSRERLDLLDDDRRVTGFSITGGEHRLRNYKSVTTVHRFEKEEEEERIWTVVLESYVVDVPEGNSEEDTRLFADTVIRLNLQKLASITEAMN; partner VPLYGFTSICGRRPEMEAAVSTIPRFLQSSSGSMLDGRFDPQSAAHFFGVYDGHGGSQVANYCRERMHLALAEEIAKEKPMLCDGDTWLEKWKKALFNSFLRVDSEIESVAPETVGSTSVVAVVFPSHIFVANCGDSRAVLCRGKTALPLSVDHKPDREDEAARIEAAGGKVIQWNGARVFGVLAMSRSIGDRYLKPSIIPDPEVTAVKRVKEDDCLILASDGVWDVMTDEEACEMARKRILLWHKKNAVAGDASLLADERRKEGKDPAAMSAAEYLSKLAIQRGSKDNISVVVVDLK
Change	relative binding score
L164V	73.9%
K168V	38.8%
N149K	-3.42%
S42C	41.2%
K126N	86.8%
H16L	3.75%
V44D	-13.8%
S117V	-9.73%
S9C	53.3%
V145Q	-5.49%
D48A	-13.5%
W134E	91.5%
S80P	1.73%
Q19G	58.4%
I57K	-9.69%
E14M	47.7%
E151K	73.8%

Block 2
Target: Centromere-binding protein 1, full length, His-tagged (CBF1, Saccharomyces cerevisiae, UniProt P17106, residues 1-351)
Chain of UniProt P17106 (whole entry, looked up): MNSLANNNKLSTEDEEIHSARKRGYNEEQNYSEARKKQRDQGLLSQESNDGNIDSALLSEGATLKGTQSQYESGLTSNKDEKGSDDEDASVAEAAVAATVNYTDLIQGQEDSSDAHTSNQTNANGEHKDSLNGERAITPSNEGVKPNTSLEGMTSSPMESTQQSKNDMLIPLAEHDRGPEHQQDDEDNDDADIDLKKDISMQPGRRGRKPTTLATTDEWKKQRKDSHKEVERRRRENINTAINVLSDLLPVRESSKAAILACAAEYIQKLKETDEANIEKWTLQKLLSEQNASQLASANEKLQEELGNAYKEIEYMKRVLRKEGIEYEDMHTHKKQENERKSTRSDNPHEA
Technique: competition protein-binding microarray
Molecule type: double-stranded DNA, one strand shown
Medium: in vitro
Concentration: 2 µM
Setting: whole 60-bp probe, lowest competitor level
Together with: Pho4 competitor, 0.05 µM
Direction: higher = stronger binding
Sequence	fluorescence intensity
GAGTAACATTACCATCACGCTAGTACTGCTAGATTAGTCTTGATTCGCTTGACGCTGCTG	93.7 a.u.
CATACCCAACCTTGGAATGTGGGTGAAGATATTTGTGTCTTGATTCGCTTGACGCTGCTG	57.9 a.u.
AATATGGCAGCCTCGCTGGTGTGCCACATAATATTAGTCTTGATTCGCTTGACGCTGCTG	63.1 a.u.
CCGATAACTCTTTGGAACGTGTTTCGAAGGAGTTGGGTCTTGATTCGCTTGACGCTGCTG	94.9 a.u.
TCTTGAAGATGGTGCAAACAAAGTTCTGTGGGATTCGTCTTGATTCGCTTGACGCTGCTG	66.5 a.u.
TACAAGGTTATCCTGATCGTGCGGACAAGAAGATCAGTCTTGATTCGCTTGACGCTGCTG	56.5 a.u.
TGACCGGGTTGACAGTTCGTGACGGGTACTGTGGCGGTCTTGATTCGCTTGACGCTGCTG	66.8 a.u.
AAAGCGGTAATTTAGCACGTGTTTTCACATATCTATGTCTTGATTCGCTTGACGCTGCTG	2810 a.u.
AGTAGCGGCTGCCGTCACGCACCATGGGTACCATCTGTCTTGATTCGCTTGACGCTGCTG	82.8 a.u.
ACCCCTTTTCAAAAGGTCGTGATTGTTTTCGTAAGAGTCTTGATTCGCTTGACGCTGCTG	118 a.u.
ATAGTACAAATCCGTCACATGATGATATTTGATTTTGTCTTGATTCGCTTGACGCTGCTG	1270 a.u.
CGTCCTAGTGATTTTCACGTGAGCTCCATGAGGAAGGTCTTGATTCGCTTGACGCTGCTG	1240 a.u.
AACACTCGAGTTACTTCCGTGATGGTTTAATGGTCAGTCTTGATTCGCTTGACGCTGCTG	85.5 a.u.
CGGGGTTAAGTTTGTCACTGCACTTGCTTGCAGCAGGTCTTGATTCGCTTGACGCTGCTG	66.3 a.u.
ACCAACCCAGGTACCGATGTGACGGTTTCCTCAGTCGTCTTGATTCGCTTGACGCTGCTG	79.1 a.u.
TTCGAAAAAAATACCCACGTGCTTTTTGGAAATGAAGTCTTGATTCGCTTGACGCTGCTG	2240 a.u.
CTAACGAAGGTTTTTCACGTGACGTACAAGCCAAGTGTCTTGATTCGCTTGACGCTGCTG	3120 a.u.
TCAGGCATCGTCTCTCACGTGAAATCTGTGGGGGCAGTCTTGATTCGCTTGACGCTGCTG	1220 a.u.
ATTGCTGCTTGCAGCTGCGTGCAAATTTCCATAATCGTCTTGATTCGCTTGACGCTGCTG	81.7 a.u.

Block 3
Target: Fragile X messenger ribonucleoprotein 1, C-terminal low-complexity region (Fmr1, Mus musculus, UniProt P35922)
Technique: RNA Bind-n-Seq
Molecule type: RNA
Medium: in vitro
Concentration: 200 nM
Setting: whole 134-nt RNA, ends assumed
Together with: 150 mM LiCl
Baseline: input library
Direction: higher = stronger binding
Library: 7-deaza-guanosine replaces G
Sequence	log2 enrichment
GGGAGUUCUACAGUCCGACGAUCUUCAGUAAAAUGGCAGAAGAGAAACUGACCCACAAAAUGGAAGCUAAUAAAGAGAACCGAGAGGCACAAAUGGCUGCCAAACUGGAACGUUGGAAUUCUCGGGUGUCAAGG	0.854
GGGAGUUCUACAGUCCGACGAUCAGUCCUGUGCUACACAUCGUAUGUACCGAAUCGGGCCCCCGGCCCCCGGGCCCCCGGAAAGUAUUAUGUUACGCCGUUCGGAUCUGCACUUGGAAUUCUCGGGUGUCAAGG	-2.19
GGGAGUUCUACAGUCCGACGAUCGUCCUGUGCUACACAUCGUAUGUACCGAAUCGGGUUUUUGGGUUUUUGGGUUUUUGGGGAAAGUAUUAUGUUACGCCGUUCGGAUCUGCAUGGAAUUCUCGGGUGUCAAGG	-1.11
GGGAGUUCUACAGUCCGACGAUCUGUGAGGUGGAUUUUGUUUAUUUUUUUAGCUCAUUUCCAGGGGUGGGAAUUUUUUUUUAAUAUGUGUCAUGAAUAAAGUUGUUUUUGAAAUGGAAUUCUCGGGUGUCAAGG	1.02
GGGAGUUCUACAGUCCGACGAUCCAAGUCCUGUGCUACACAUCGUAUGUACCGAAUCGGAAAAAAAGGAAAAAGGUGGAAAGUAUUAUGUUACGCCGUUCGGAUCUGCACUUCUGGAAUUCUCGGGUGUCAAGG	-1.18
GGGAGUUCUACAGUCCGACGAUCGAAAUCCACAGGAAAGUGAUGUCACAAAACUUCACCAACUGCCACACCAAGAUUCGCCAUGUUGAUGCUCAUGCCACGCUAAAUGAUGGUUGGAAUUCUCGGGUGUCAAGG	0.961
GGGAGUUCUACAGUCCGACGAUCCAAGUCCUGUGCUACACAUCGUAUGUACCGAAUCGGGGAAAGGGAAAGGGGAAAGGAAAGUAUUAUGUUACGCCGUUCGGAUCUGCACUUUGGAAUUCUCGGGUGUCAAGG	-0.953
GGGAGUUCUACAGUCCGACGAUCGCAGGAAGUAAAAACAAAUGGAAAUGCUUCGGAUAGUGGCAGGGGUGGGGGUUGCUAAGGAAAGGGUGGGAUUGGAGUGGGUAAAGAGUUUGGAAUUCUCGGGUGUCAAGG	1.33

Block 4
Target: CCNA2, cyclin fold, Cln2 fusion (human)
Technique: yeast growth competition, sequencing
Medium: yeast
Setting: strong parent motif
Baseline: not given
Direction: higher = stronger binding
Parent: BORA docking peptide (human); SSLRRKLFLDGNG
Change	normalised enrichment score
SSLRRKLFLDGNA [G13A]	1.98
SSLRKKLFLDGNG [R5K]	1.42
SSLRRKAFLDGNG [L7A]	0.711
SSLRRKLFADGNG [L9A]	0.695
SSLRRKLFLAGNG [D10A]	1.62
SSLRRKLALDGNG [F8A]	1.56
ASLRRKLFLDGNG [S1A]	2.33
SSLRAKAFLDGNG [R5A L7A]	-0.232
SSLRRKLFFDGNG [L9F]	2.81
SSLRKKLLLDGNG [R5K F8L]	0.799
SSLRRKLFLDANG [G11A]	2.6

Excerpt of the above (block 1):
Change	relative binding score
V145Q	-5.49%
S42C	41.2%
D48A	-13.5%
N149K	-3.42%
K126N	86.8%
S117V	-9.73%
S9C	53.3%
